Results of several laboratories.
Each numbered part is a random draw from the data of one study; scales do not carry over between parts.

Series 1 — effect on: enzyme activity; action: inhibitor; tested at: 0.5 µM; relative to: control
Target: Dual specificity protein kinase TTK (TTK, Homo sapiens, UniProt P33981)
Residues (P33981 1-857): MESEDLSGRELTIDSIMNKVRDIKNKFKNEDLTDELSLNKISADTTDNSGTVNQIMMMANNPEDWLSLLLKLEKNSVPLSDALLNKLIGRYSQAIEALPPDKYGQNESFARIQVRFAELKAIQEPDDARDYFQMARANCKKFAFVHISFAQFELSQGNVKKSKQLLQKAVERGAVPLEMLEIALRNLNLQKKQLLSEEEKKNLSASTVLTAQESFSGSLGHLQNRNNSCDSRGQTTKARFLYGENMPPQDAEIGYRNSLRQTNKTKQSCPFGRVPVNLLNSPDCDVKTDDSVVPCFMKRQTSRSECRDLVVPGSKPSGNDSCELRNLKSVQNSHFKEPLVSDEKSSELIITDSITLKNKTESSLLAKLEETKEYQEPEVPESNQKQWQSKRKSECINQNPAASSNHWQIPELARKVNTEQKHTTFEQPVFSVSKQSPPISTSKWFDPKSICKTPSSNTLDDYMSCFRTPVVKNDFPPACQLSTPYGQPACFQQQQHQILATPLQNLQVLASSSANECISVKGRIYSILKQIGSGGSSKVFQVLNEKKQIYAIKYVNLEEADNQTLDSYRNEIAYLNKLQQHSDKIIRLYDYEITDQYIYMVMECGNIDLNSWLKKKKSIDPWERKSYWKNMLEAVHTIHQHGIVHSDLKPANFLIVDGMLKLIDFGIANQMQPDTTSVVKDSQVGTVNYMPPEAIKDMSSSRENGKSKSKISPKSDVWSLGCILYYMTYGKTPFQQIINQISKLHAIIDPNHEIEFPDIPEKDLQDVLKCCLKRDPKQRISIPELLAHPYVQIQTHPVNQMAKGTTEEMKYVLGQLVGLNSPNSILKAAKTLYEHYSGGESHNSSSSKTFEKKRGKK
Structure (SMILES) | remaining activity
COc1ccc(Cl)cc1NC(=O)Nc1cc(C)nc2ccccc12 | 103%
CS(=O)(=O)CCNCc1ccc(-c2ccc3ncnc(Nc4ccc(OCc5cccc(F)c5)c(Cl)c4)c3c2)o1 | 102%
Nc1[nH]nc2nnc(-c3c(-c4ccccc4)nn4ccccc34)cc12 | 110%
O=C(Nc1ccc(Cl)cc1)c1ccccc1NCc1ccncc1 | 102%
COc1cc2ncc(-c3ccccc3)nc2cc1OC | 125%
C[S+]([O-])c1ccc(-c2nc(-c3ccncc3)c(-c3ccc(F)cc3)[nH]2)cc1 (centres unmarked) | 99.9%
COc1ccc(-c2cnc3c(-c4ccsc4)cnn3c2)cc1 | 94.2%
Cn1cnc2cc3c(Nc4cccc(Br)c4)ncnc3cc21 | 95.7%
COc1cc2ncnc(N3CCN(C(=O)Nc4ccc(Oc5ccccc5)cc4)CC3)c2cc1OC | 98.3%
COc1cc2ncnc(Nc3ccc(OCc4ccccc4)cc3)c2cc1OC | 96.8%
Cc1nc(Nc2ncc(C(=O)Nc3c(C)cccc3Cl)s2)cc(N2CCN(CCO)CC2)n1 | 105%
O=C1NC(=O)/C(=C/c2ccc3nccnc3c2)S1 | 102%
Cn1cc(/C=C2\C(=O)Nc3ccc(S(N)(=O)=O)cc32)c2ccccc21 | 97.3%
CCC(=O)Nc1ccc2ncnc(Nc3cccc(Br)c3)c2c1 | 113%
O=c1cc(N2CCOCC2)oc2c1ccc1ccccc12 | 103%
CCOc1cc2ncnc(Nc3cccc(Br)c3)c2cc1OCC | 91.2%
CC(C)[C@H](CO)Nc1nc(Nc2cccc(Cl)c2)c2ncn(C(C)C)c2n1 | 116%
CCN1/C(=C/C(C)=O)Sc2ccc(OC)cc21 | 88.7%
CC(=O)O/N=C1/C(c2c(O)[nH]c3cc(Br)ccc23)=Nc2ccccc21 | 93.9%
CC(C)c1nn(-c2c(Cl)cccc2Cl)c2nc(Cc3ccc(OCCO)cc3)[nH]c(=O)c12 | 101%
CN(C)CCCn1cc(C2=C(c3c[nH]c4ccccc34)C(=O)NC2=O)c2ccccc21 | 98.2%
Cc1ccc(NC(=O)c2ccc(CN3CCN(C)CC3)cc2)cc1Nc1nccc(-c2cccnc2)n1 | 102%

Series 2 — cell line: A-375; tested at: 100 µM; time: 36 h
Compound | viability [%]
CCC1=C(C)CN(C(=O)NCCc2ccc(S(=O)(=O)NC(=O)N[C@H]3CC[C@H](C)CC3)cc2)C1=O | 113
C/C=C(/C(=C/C)c1ccc(O)cc1)c1ccc(O)cc1 | -2.17
Cc1ccc(C(=O)C(C)CN2CCCCC2)cc1 (centres unmarked) | 116
CC[C@@H](CO)NCCN[C@@H](CC)CO | 95.8
CCC[C@@H]1C[C@@H](C(=O)N[C@@H]([C@H]2O[C@H](SC)[C@H](OP(=O)(O)O)[C@@H](O)[C@H]2O)[C@H](C)Cl)N(C)C1 | 82.5
CCC(Cc1c(I)cc(I)c(N)c1I)C(=O)O (centres unmarked) | 91.9
Cc1ncc([N+](=O)[O-])n1CC(C)O (centres unmarked) | 113
C[C@]12C=CC(=O)C=C1CC[C@@H]1[C@@H]2[C@@H](O)C[C@@]2(C)[C@H]1CC[C@]2(O)C(=O)COP(=O)(O)O | 104
O=C(O)[C@H]1O[C@H](O)[C@H](O)[C@@H](O)[C@@H]1O | 105
C[C@]12C=CC(=O)C=C1CC[C@@H]1[C@@H]2[C@@H](O)C[C@@]2(C)[C@H]1CC[C@]2(O)C(=O)CO | 109
C[C@H](CCC(=O)O)[C@H]1CC[C@H]2[C@@H]3[C@@H](O)C[C@@H]4C[C@H](O)CC[C@]4(C)[C@H]3CC[C@]12C | 111
CC(CCc1ccccc1)NCC(O)c1ccc(O)c(C(N)=O)c1 (centres unmarked) | 103
O[C@H]1[C@H](O)[C@@H](O)[C@H](O)[C@@H](O)[C@H]1O | 125
COc1cccc2c1C(=O)c1c(O)c3c(c(O)c1C2=O)C[C@@](O)(C(C)=O)C[C@@H]3O[C@H]1C[C@H](N)[C@H](O)[C@H](C)O1 | 15.2

Series 3 — organism: Plasmodium berghei; action: inhibitor; cells: Huh-7; strain: GFP-expressing, liver stage; tested at: 10 µM; time: 24 h; relative to: untreated control
Compound | infection rate
CCCCCCCCCCC[C@@H](C[C@@H]1OC(=O)[C@H]1CCCCCC)OC(=O)[C@H](CC(C)C)NC=O | 43.6%
CC(C)c1nc(N(C)S(C)(=O)=O)nc(-c2ccc(F)cc2)c1/C=C/[C@@H](O)C[C@@H](O)CC(=O)O | 131%
CNS(=O)(=O)Cc1ccc2[nH]cc(CCN(C)C)c2c1 | 55.8%
CC1(C)S[C@@H]2[C@H](NC(=O)COc3ccccc3)C(=O)N2[C@H]1C(=O)O | 111%
CN1C(C(=O)Nc2ccccn2)=C(O)c2sccc2S1(=O)=O | 112%
NC(N)=O | 107%
NC(=O)C1(N2CCCCC2)CCN(CCCC(=O)c2ccc(F)cc2)CC1 | 96.4%
O=C(O)c1ccccc1C(=O)Nc1ccc(S(=O)(=O)Nc2nccs2)cc1 | 23.9%
CN(C/C=C/C#CC(C)(C)C)Cc1cccc2ccccc12 | 99.7%
Nc1ccc(/N=N/c2ccccc2)c(N)n1 | 274%
CC(N)[C@]12C[C@H]3C[C@H](C[C@H](C3)C1)C2 (some centres unmarked) | 94.8%
O=C(/C=C/C=C/c1ccc2c(c1)OCO2)N1CCCCC1 | 95%
Cc1ncc(C[n+]2csc(CCO)c2C)c(N)n1 | 105%
N[C@@H](Cc1c[nH]c2ccccc12)C(=O)O | 93.3%
COc1ccc(CN(CCN(C)C)c2ccccn2)cc1 | 119%
CNC[C@H](O)c1cccc(O)c1 | 94.8%

Series 4 — tested at: 0.1 µM; relative to: DMSO
Compound: CNC(=O)Nc1ccc2c(c1)CC[C@]21OC(=O)N(CC(=O)N(Cc2ccc(F)cc2)[C@@H](C)C(F)(F)F)C1=O
cell line | conditions | viability
sample B colorectal tumour organoid | – | 104%
colorectal tumour organoids | – | 110%
sample B colorectal tumour organoid | replicate 2 | 110%
sample BA colorectal tumour organoid | – | 121%
sample B colorectal tumour organoid | replicate 1 | 98.7%
sample I colorectal tumour organoid | – | 98.3%
sample C colorectal tumour organoid | replicate 1 | 119%

Some of these lines once more (series 1):
Structure (SMILES) | remaining activity
O=c1cc(N2CCOCC2)oc2c1ccc1ccccc12 | 103%
CCOc1cc2ncnc(Nc3cccc(Br)c3)c2cc1OCC | 91.2%
CC(C)[C@H](CO)Nc1nc(Nc2cccc(Cl)c2)c2ncn(C(C)C)c2n1 | 116%
CCN1/C(=C/C(C)=O)Sc2ccc(OC)cc21 | 88.7%
CC(=O)O/N=C1/C(c2c(O)[nH]c3cc(Br)ccc23)=Nc2ccccc21 | 93.9%
CC(C)c1nn(-c2c(Cl)cccc2Cl)c2nc(Cc3ccc(OCCO)cc3)[nH]c(=O)c12 | 101%
CN(C)CCCn1cc(C2=C(c3c[nH]c4ccccc34)C(=O)NC2=O)c2ccccc21 | 98.2%
Cc1ccc(NC(=O)c2ccc(CN3CCN(C)CC3)cc2)cc1Nc1nccc(-c2cccnc2)n1 | 102%
